# Measurements collected from several papers.
# Protocols differ between the studies behind these lines. ± gives the spread as reported.
SMILES,test,system,setting,scale,measurement,result
Oc1ccc(Cl)c(-c2ccc(Cl)cc2Cl)c1Cl,enantioselective gas chromatography,racemized sample,column temperature 145 °C,,enantiomeric fraction,0.49
Cn1cc(-c2nc(N[C@@H]3CCCC[C@@H]3N)c(F)c3c2C(=O)NC3)cn1,item: Epistaxis,patients with relapsed or refractory AML,"oral, 60 mg twice daily",,hemorrhagic adverse events,38%
CCCCCCCCCCCCOS(=O)(=O)[O-].[Na+],,bovine liver slices,"50 µg/mL, 6 h",baseline: control,ATP level,decreased
C[C@H](O)c1cnc(NS(=O)(=O)c2ccc(Cl)c(Cl)c2)nc1,,"hepatocytes, HSD17B13 knockout with AAV control, C57BL/6J mouse, male",1 µM,,scaled intrinsic clearance,< 1200 mL/h/kg
CCCC1CCC(C2CCC(c3ccc(F)c(F)c3)CC2)CC1 (stereo not shown),,"rat, placenta","1000 ng/mL in perfusate, middle dose, mixture of 21 LCMs",,placental accumulation,17 ± 21.3 ng/g
NCCCC[C@@H]1NC(=O)[C@@H](Cc2c[nH]c3ccccc23)NC(=O)[C@H](c2ccccc2)NC(=O)[C@@H]2C[C@@H](OC(=O)NCCN)CN2C(=O)[C@H](Cc2ccccc2)NC(=O)[C@H](Cc2ccc(OCc3ccccc3)cc2)NC1=O,,healthy volunteers,"subcutaneous, 600 µg twice daily, day 5, 8.00 h",,QTcI change from baseline,-2.5 ms
N=C(N)NCCC[C@@H](NC(=O)[C@@H](N)Cc1ccccc1)C(=O)N[C@@H](Cc1ccccc1)C(=O)N[C@@H](CCCCN)C(N)=O,LC-MS,human,"5 mg, 5.833 h",,mean amount excreted in urine,1.08e+06 ng
C[C@@H]1OC(=O)NN=C1c1ccc(-c2ccc(F)cc2)c(C(F)(F)F)c1,"phase I trial, item: back pain worst grade 1",human patients,5 mg loading then 0.25 mg daily,,patients with adverse event,0%
C[C@]1(CO)Cc2ncn(-c3ccc(C#N)c(Cl)c3)c2C(=O)O1,,human,"all doses, European single ascending dose",,drug-related involuntary muscle contractions,2.1%
CC(=O)c1c(C)c2cnc(Nc3ccc(C4CCN(CCS(C)(=O)=O)CC4)cn3)nc2n(C2CCCC2)c1=O,,HR+/HER2- advanced breast cancer patients,"oral, dose not given, all grades, total",,patients with any TEAE,100%
O=C(O)CCCOc1ccc(F)cc1-c1cc(-c2ccccc2C(F)(F)F)n(-c2ccccc2)n1,item: thyroid,"Crl:CD(SD) rats, male","iv, 25 µg/kg, 14 days",,relative organ weight,5.7 ± 0.9 mg%
NC(=O)[C@H]1CCN(c2ncnc(N)c2F)C[C@@H]1N1CCC[C@@H](Nc2cc(Cl)cc(C(F)(F)F)c2)C1=O,,B-cell malignancy patients,"oral, 82 mg twice daily, dose",,grade ≥3 thrombocytopenia,0%
O=C1Nc2cc3[nH]nc(-c4ccncc4)c3cc2CN1Cc1ccccc1,item: Rash,patients with advanced solid tumours,"intravenous, dose not given, all schedules",,patients with TEAE,12%
Cn1cncc1-c1c(F)cncc1NC(=O)c1c(N)nn2cc(F)cnc12,,human patients,"oral, 150 mg twice daily, 4 days per 3 days",,grade ≥3 white blood cells decreased,25%
O=S(=O)(Nc1ccccc1)c1ccc(NC(=S)Nc2ccccc2)cc1,item: ALKP,"male mouse, blood","oral, 20 mg/kg daily, 14 days",,serum enzyme activity,135 U/L
CC(C)C[C@H](NC(=O)[C@H](CCCCN)NC(=O)OCC1c2ccccc2-c2ccccc21)C(=O)N[C@H](C(=O)N[C@@H](Cc1ccccc1)C(=O)N[C@@H](Cc1ccccc1)C(=O)N[C@@H](CCCCN)C(=O)NCC(=O)N[C@@H](Cc1ccccc1)C(=O)N[C@@H](C)C(=O)N[C@@H](Cc1c[nH]c2ccccc12)C(=O)N[C@@H](CC(N)=O)C(=O)N[C@H](C(=O)N[C@H]1CSSC[C@@H](C(=O)N[C@@H](Cc2c[nH]cn2)C(=O)N[C@@H](CCCNC(=N)N)C(=O)N[C@@H](CCCNC(=N)N)C(=O)N[C@@H](C)C(=O)N[C@@H](CC(N)=O)C(N)=O)NC(=O)[C@H](C(C)C)NC(=O)[C@H](CCCNC(=N)N)NC(=O)[C@H](C(C)C)NC(=O)CNC(=O)[C@H](CC(N)=O)NC(=O)[C@H](CCCNC(=N)N)NC(=O)[C@H](Cc2ccc(O)cc2)NC(=O)[C@H](C(C)C)NC1=O)C(C)C)C(C)C,"circular dichroism, item: β-Turn",PBS,"80 µM, pH 7.4, together with: LPS 1 µM",,secondary structure content,17%
CC[C@H](C)[C@H](NC(=O)[C@H](CCCNC(=N)N)NC(=O)[C@H](CCSC)NC(=O)[C@H](C)N)C(=O)N[C@@H](CO)C(=O)N[C@@H](CCCNC(=N)N)C(=O)N[C@H](C(=O)N[C@H](C(=O)N[C@@H](CC(C)C)C(=O)N[C@H](CC(=O)O)C(=O)N[C@@H](Cc1ccccc1)C(=O)N[C@@H](CC(C)C)C(=O)N[C@@H](Cc1ccccc1)C(=O)N[C@@H](CC(C)C)C(=O)N[C@@H](CCCNC(=N)N)C(=O)N[C@@H](CCCCN)C(=O)N[C@@H](CCCCN)C(=O)O)[C@@H](C)CC)[C@@H](C)CC,H&E staining,"CD1 mice, lung","intratracheal, 50 µg/day, one week",,lung toxicity,not toxic
O=S(=O)([O-])C(F)(F)C(F)(F)C(F)(F)C(F)(F)C(F)(F)C(F)(F)C(F)(F)C(F)(F)F.[K+],"RT-qPCR, item: Cyp3a11","pair-fed mice, liver",dose not given,,mRNA level,increased
CC/C(=C(\c1ccccc1)c1ccc(OCCN(C)C)cc1)c1ccccc1,,"CD-1 mouse, male, plasma","intraperitoneal, 3 mg/kg",,AUC(0-inf),612 ng·h/mL
C=CC(=O)Nc1cc(Nc2nccc(Nc3cc(Cl)c(F)cc3C(C)(C)O)n2)c(OC)cc1N1CC[C@@H](N(C)C)C1,treatment-emergent adverse events,human,"oral, 50 mg, phase I clinical trial",,incidence of weight decreased,0%
CCCCCOc1ccc(-c2ccc(-c3ccc(C(=O)N[C@H]4C[C@@H](O)[C@@H](OCC[N+](C)(C)C)NC(=O)[C@@H]5[C@@H](O)[C@@H](C)CN5C(=O)[C@H]([C@@H](C)O)NC(=O)[C@H]([C@H](O)[C@@H](O)c5ccc(O)cc5)NC(=O)[C@@H]5C[C@@H](O)CN5C(=O)[C@H]([C@@H](C)O)NC4=O)cc3)cc2)cc1,,"adult ICU patients, mITT, serum","dose not given, Baseline",,aspartate aminotransferase,28.2 U/L
C=CCNc1c(O)cc2c(O)c1C[C@@H](C)C[C@H](OC)[C@H](O)[C@@H](C)/C=C(\C)[C@H](OC(N)=O)[C@@H](OC)/C=C\C=C(/C)C(=O)N2,,unresectable or metastatic sarcoma,"intravenous, 300 mg/m^2, grade 3-4 lab change",,patients with ALP increase,33%
Cn1c(=O)c2c(ncn2C)n(C)c1=O,PAMPA,pre-coated trilayer membrane,"200 µM, 5 h, pH 7.4, donor plate, PBS",,donor concentration,148 ± 5.2 µM
Clc1nc[n]([Au][PH](c2ccccc2)(c2ccccc2)c2ccccc2)c1Cl,,"NCG mouse, plasma","intraperitoneal, 10 mg/kg",,CL/F,5.88 mL/h/kg
COc1cc2c(Oc3ccc4[nH]c(C)cc4c3F)ccnc2cc1OCC1(N)CC1,,paediatric recurrent refractory sarcoma,10 mg,,grade 3 Vomiting,0%
CO[C@H]1C[C@@H]2CC[C@@H](C)[C@@](O)(O2)C(=O)C(=O)N2CCCC[C@H]2C(=O)O[C@H]([C@H](C)C[C@@H]2CC[C@@H](OC(=O)NCCOCCOCCOCCOCCOCCOCCOCCOCCC(=O)N3CCc4cc(Cn5nc(-c6ccc7oc(N)nc7c6)c6c(N)ncnc65)ccc4C3)[C@H](OC)C2)C[C@@H](O)[C@H](C)/C=C(\C)[C@@H](O)[C@@H](OC)C(=O)[C@H](C)C[C@H](C)/C=C/C=C/C=C/1C,,patients with advanced solid tumours,"intravenous, dose not given, any grade",,incidence of Constipation TEAE,19.3%
CC1(C)[C@H](C(=O)OCc2cccc(Oc3ccccc3)c2)[C@@H]1C=C(Cl)Cl,item: CYP2C9,"human, age 5 years, recombinant human CYP2C9",0.1 µM,,enzyme contribution to clearance,2.23%
COc1ccc(-c2c(-c3ccc(C#N)c(F)c3)nc(N3CCC(N)CC3)n(C)c2=O)cc1F,item: Neutropenia,relapsed/refractory marginal zone lymphoma patients,"oral, 60 mg, any grade, dose expansion",,treatment-related adverse event incidence,33%
CC(C)Nc1ccnc(Nc2cccc(-c3cccnc3)c2)n1,item: Creatinine,"mouse, blood","intraperitoneal, 3 mg/kg",,blood chemistry,0.3 mg/dL
CC(C)[C@@H]1CC[C@@H](C)C[C@@H]1O,acute oral toxicity OECD,"Swiss albino mice, serum","oral, 1000 mg/kg",,alanine aminotransferase,51.9 ± 8.86 U/L
N[C@@H]1c2ccccc2OC12CCN(c1cnc3c(N4CCCc5ncccc54)n[nH]c3n1)CC2,,advanced solid tumour patients,"oral, 40 mg once daily",,TEAE causing dose reduction,0%
C[C@@H](NC(=O)N1C(=O)[C@H](Cc2ccnc(N)c2)[C@H]1C(=O)O)C1CCCCC1,,healthy Chinese adult volunteers,"continuous intravenous infusion, dose not given, 5.0 days, CTCAE 5.0, all doses",,adverse events excluding prolonged aPTT,52.5%
COc1ncccc1-c1cnn2ccc(N3CCN(C(=O)OC(C)C)CC3)nc12,,"rat, CCI mechanical allodynia model, brain","oral, 1 mg/kg, 240 min",,drug concentration,470 nM
COc1ccc2c(c1)NC(=O)CN2c1nc(C)nc2c1CCC2,body weight,NSG mouse,preliminary,,maximum tolerated dose,> 4 mg/kg
